Measurements from different studies.
Each numbered part is a random draw from the data of one study; scales do not carry over between parts. Substitutions count along the parent as printed.

Series 1
Target: PABPC1L2, full length, GST fusion (mouse, UniProt A0ABA7IW68)
Technique: RNAcompete
Form: RNA
Medium: in vitro
Tested at: 20 nM
Setting: 7-mer, probes averaged, single round
Baseline: mean of 7-mers
Reading: higher = stronger binding
Construct (chain): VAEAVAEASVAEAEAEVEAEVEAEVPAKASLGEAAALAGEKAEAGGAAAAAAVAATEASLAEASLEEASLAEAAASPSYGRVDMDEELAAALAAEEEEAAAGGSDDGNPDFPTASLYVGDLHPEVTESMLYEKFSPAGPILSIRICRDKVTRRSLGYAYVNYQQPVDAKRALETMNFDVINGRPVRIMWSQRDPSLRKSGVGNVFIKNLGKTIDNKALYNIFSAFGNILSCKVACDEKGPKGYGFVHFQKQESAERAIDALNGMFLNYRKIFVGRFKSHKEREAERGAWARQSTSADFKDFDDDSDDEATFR
For `GAAGCGA`, the 7-mer Z-score was 0.0515.
The 7-mer Z-score of `AAAACAA` is reported as 9.26.
`UUUGUCG` gave a 7-mer Z-score of -0.46.
`GUAACGA` gave a 7-mer Z-score of 0.0388.
`ACUGACC` has a 7-mer Z-score of -0.00289.
`GCCUUAA` gave a 7-mer Z-score of -0.0482.
`CGCCCGA` gave a 7-mer Z-score of -0.311.
`GCGAGUA` gave a 7-mer Z-score of -0.153.

Series 2
Target: HLA class I histocompatibility antigen, C alpha chain, allele C*04:01 (Homo sapiens, UniProt P10321)
Effect on: peptide-MHC binding
Form: peptide
Tested at: concentration not given
For `RVRWRNYAL`, binding read “inactive”.
`ETTNWLWTF`: binding “inactive”.
For `TTYVYTLPV`, binding read “inactive”.

Series 3
Target: CCND1, cyclin fold, Cln2 fusion (human)
Technique: yeast growth competition, sequencing
Medium: yeast
Setting: strong parent motif
Baseline: not given
Reading: higher = stronger binding
Starting sequence: viral docking peptide; YKVKRRLVFGADD; partner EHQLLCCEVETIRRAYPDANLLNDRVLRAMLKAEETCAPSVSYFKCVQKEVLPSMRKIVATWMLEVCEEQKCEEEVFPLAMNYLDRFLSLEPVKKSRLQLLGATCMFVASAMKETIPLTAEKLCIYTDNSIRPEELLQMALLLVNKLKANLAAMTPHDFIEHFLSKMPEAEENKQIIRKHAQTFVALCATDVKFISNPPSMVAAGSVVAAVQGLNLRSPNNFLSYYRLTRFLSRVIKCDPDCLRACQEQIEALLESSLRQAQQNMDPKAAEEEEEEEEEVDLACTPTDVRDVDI
`G10F`: “normalised enrichment score” 0.586.
`L7H` — result for “normalised enrichment score”: -0.545.
`G10H` — result for “normalised enrichment score”: 1.26.
Under “normalised enrichment score”, `K4A` is recorded as 3.47.
`F9H`: “normalised enrichment score” -0.0891.
`R5L` — result for “normalised enrichment score”: -0.0559.
Under “normalised enrichment score”, `K2N` is recorded as 2.78.
`V8Y`: “normalised enrichment score” 1.91.
For `V3M`, “normalised enrichment score” read 0.274.
`K4Q`: “normalised enrichment score” 2.89.
Under “normalised enrichment score”, `A11G` is recorded as 2.37.
Under “normalised enrichment score”, `R5Y` is recorded as 0.0838.
`D12T`: “normalised enrichment score” 1.3.
`A11Q`: “normalised enrichment score” 1.89.
`A11Y`: “normalised enrichment score” 1.62.

Series 4
Target: Hepatocyte nuclear factor 3-alpha (Foxa1, Mus musculus, UniProt P35582, residues 1-468, full length assumed)
Technique: EMSA with sequencing
Form: double-stranded DNA, one strand shown
Medium: in vitro
Tested at: 10 and 20 nM
Setting: whole designed probe, mean of two concentrations, ends assumed
Baseline: negative control set to 0
Reading: higher = stronger binding
Construct (chain): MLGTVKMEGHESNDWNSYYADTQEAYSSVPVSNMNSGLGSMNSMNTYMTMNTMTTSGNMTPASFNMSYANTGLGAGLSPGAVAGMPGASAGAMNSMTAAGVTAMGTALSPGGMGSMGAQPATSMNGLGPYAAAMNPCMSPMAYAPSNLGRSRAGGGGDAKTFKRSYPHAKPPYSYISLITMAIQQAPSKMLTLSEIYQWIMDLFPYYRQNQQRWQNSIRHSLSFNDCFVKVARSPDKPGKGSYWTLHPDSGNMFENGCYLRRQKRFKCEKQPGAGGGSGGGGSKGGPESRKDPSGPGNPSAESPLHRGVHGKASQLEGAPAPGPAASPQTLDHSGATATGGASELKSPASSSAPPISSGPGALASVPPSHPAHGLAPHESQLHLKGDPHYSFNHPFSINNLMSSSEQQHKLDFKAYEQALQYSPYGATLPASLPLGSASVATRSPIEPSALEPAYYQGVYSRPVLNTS
`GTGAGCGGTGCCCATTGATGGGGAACGGATTCTTTCATTATACAAATACAGATGTTATTTTTTAATTTCAGAAGAAATCATGGTATATCAATCTATTGAGTGCTAACTAAAAGTTCCCTTTGTTTACTTAGCTTTCTCTTAGTTATAAGAAAGAAAAAGACCTCTTGCATGAAAATAGTACGTTGCAGGAAGAAATTGTCATGCTAAGACTGGAACTAGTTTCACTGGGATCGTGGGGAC`: “normalised bound fraction” 0.519 ratio.
`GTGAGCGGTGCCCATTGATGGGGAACGTGGAAATGACTATTCATTATGCGGAAGAATAAGACTTTATAAGAATAGTATTTCCCTAAGCAGGCACAGCACTTGAGAAGGTTACAGAATACCTGTTTACTCTGCTAACCTAATTCTCTGTCGATTTCTCTTGTCAATGCCTTTTGATATTTTGACACAGAATGTTCTACCTAGGACCACTCTGCTGAATATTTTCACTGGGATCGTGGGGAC` — result for “normalised bound fraction”: 0.0953 ratio.
`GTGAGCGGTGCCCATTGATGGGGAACACTTCCACAAGGGAAGATAATGATAAAACATTAATAAAAATATCTATGAAGATGAGGACACAATAGAAAGCACAAGTTACATTGGGAAAAAGAGTCATCTGATACAACAAGATAATTCACATCCCAATAATTAAGGGTAATAAAGCAATATGAAAGAGGTAAGTATGCTTAAAATGTTTATTGACCAAAAGAATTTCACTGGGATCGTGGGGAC` — result for “normalised bound fraction”: 0.228 ratio.
Under “normalised bound fraction”, `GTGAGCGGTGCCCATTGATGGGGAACACAACATCAGGTCATTATTTATCCACTTGTCCTTTTTTTTTTTATCATTCCTTTGAACTGCCTGCATTTGCTTATCGTGATATTTCTCAGTCTGTAAACAGCCCGAGTAGCTGTTCTATTTCTCTAAATAGAGTCTTAGGTCATTTTATTATCCAGAATTGTAAGTCATCAGAATGCACCCATCTGTTGTCCTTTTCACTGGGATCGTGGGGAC` is recorded as 0.123 ratio.
For `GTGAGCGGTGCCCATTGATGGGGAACTGGTTTTAAAGACTAACAGGATAATGGCGTTTCTTGTTTAGCGGCATAAATTGTGAATGTGTTCCATTAAATTTCCATATGGCATCATGACAATGTAATCTCAGACCATCAAGAAGGTCCATAGACTGGCCACTGAGAGAACTCTGGGGGCCCATTGTGATGCTCTCTGGCTAGTCCATCGGGGTCTACATGATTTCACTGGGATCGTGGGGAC`, “normalised bound fraction” read -0.0483 ratio.
`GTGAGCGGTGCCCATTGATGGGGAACCTTTACCCTCCATGTTACAGGATTTTTTAAAAGAGTATCATTATATACAAAAAGTTAGAGTTCGCTGGTTAGAATGAGAACCATTCAAGGCAAAGTAATCTTAAACTCTCCTGTCCCAAAGGGTGTTAACTAGGTCCGCTTTCATGTGCATCAGACGATACACCTATAGCAAGCACACACAGCAGTGCTAGGCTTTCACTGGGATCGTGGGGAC`: “normalised bound fraction” -0.0462 ratio.
Under “normalised bound fraction”, `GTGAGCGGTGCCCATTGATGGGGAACGGAGCTAAAAATCAGCTTGTCTGAAAATTCTCATAAAATTTGCAAAACCCTGAAACTGAAAGTTCTGCAGTGCAGAGGCATTTCCATGCAATGTAAACAAGGTCAGTTAGGGCCTCTTGGAACTATGCTGGGATGGGGGCCACTGTCAGTCAAGCTACTGTTGGGCTTGGGATGAGGATGGAGGGAACTGACCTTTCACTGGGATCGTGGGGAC` is recorded as 0.408 ratio.
`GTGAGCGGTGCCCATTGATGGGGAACTACTGATATAAAAATAGGCATATAGACCAATGGAACAGAATAGAGAACCCAGAAATAAAACCAAATACTTACAGCCAACAGATTTTTGACAAAGCAAACAAAAACATGAAGTGGGGAAAGGAAACCCTATTGAACAAATAATGGAGGGATGTTTAGCAAGCCACATGTAGAAGAATAAAACTGGAAACTCATCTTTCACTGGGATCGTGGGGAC` — result for “normalised bound fraction”: 0.483 ratio.
